Published values of several laboratories.
Each line is one published result; not all experiments were run side by side. Numbers after ± are the reported error.

SMILES | test | system | conditions | AUC(0-t)
Oc1ccc([C@@H](O)c2cc(-c3ncnc4cc(N5CCOCC5)ccc34)c(F)cc2Cl)nn1 | geometric mean | healthy volunteers, plasma | oral, 100 mg, fasted tablet | 380 ng·h/mL
COc1nnc2ccc(N3CCC(c4ccc(OCCN5CCN(C)C(=O)[C@H]5C)cc4)CC3)nn12 |  | patients, plasma | oral, 10 mg twice daily, multiple dose, monotherapy | 0.172 µM·h
CO[C@H]1CC[C@H](N2C(=O)CNc3ncc(-c4ccc(C(C)(C)O)nc4)nc32)CC1 | geometric mean | patients, plasma | oral, 15 mg, day 15 | 282 ng·h/mL
C[C@@H](N)C1CCN(S(=O)(=O)c2cccc3cnccc23)CC1 |  | healthy volunteers, fasted, plasma | oral, 75 mg | 13.8 ng·h/mL
N[C@@H](Cc1ccc(O)c(O)c1)C(=O)O |  | Parkinson's disease patients, plasma | oral, dose not given, 3 h, high carbidopa Cmax subgroup (≥9 µmol/L), median | 12.8 µM·h
CS(=O)(=O)c1ccc([C@@H](O)[C@@H](CF)NC(=O)C(Cl)Cl)cc1 |  | Arbor Acres chickens, plasma | oral, 20 mg/kg, with: quercetin 60 mg/kg pretreatment | 41100 ± 2480 ng·h/mL
CC[C@H](Nc1ncnc2[nH]cnc12)c1oc2ccccc2c(=O)c1-c1cccc(F)c1 |  | patients, Cohort-1, plasma | oral, 400 mg twice daily, with: romidepsin 12 mg/m2 | 5770 ± 6000 ng·h/mL
C=CC(=O)NC1CCN(c2ncc3ncnc(Nc4ccc(Oc5ccc6c(c5)ncn6C)c(C)c4)c3n2)CC1 |  | healthy men | oral, 60 mg single dose | 12.1 µM·h
Cc1ccc(NC(=O)c2ccc(CN3CCN(C)CC3)cc2)cc1Nc1nccc(-c2cncc(-c3oncc3C)c2)n1 |  | Parkinson's disease patients, plasma | oral, 100 mg/day, 7 days, steady state | 45700 ± 25000 ng·h/mL
N[C@@H](CC(=O)N1CCc2c(nc(C(F)(F)F)nc2C(F)(F)F)C1)CN1CC(F)(F)CCC1=O |  | healthy Korean adults, fasted, plasma | oral, 50 mg single dose, separate tablets, with: enavogliflozin 0.3 mg | 1320 ± 251 ng·h/mL
C[C@@](Cc1ccc(O)c(O)c1)(NN)C(=O)O |  | Parkinson's disease patients, plasma | oral, dose not given, 3 h, low levodopa AUC subgroup (11.5 µmol·h/L), median | 0.35 µM·h
O=C(O)c1cc(O)c(O)c(O)c1 |  | chicken Ross broiler, male, serum | intravenous, 0.49 mg/kg, 6 h | 2.25 ± 0.63 µM·h
